Assay results of several laboratories.
Lines come from different studies, so protocols differ. ± marks the error that the study gave. ≈ marks a conversion by molar mass, not a printed value.

SMILES | tested on | assay | system | conditions | scale | quantity | value
CC(=O)[O-].O.O.O.O.[Co+2].[O-]c1ccc(Br)cc1C=NCCN1CCOCC1 |  | DPPH radical scavenging |  | 120 µM |  | inhibition | 47.8%
COC1CN([C@H]2CC[C@H]([C@@]3(C)Oc4c(Cl)cc(C(=O)NCc5c(SC)cc(C)[nH]c5=O)c(C)c4O3)CC2)C1 |  | RNA-seq, measured: MICU1 mouse homolog | mouse, HT-1376 xenograft, whole blood | dose not given | reference: vehicle | log2 fold change | 0.554
C[n+]1cc(/C=N/NC(=O)C(=O)N/N=C/c2cc3ccccc3[n+](C)c2)cc2ccccc21 | telomeric G4 DNA hybrid-2 | FRET melting |  | 1 µM, DNA 0.2 µM |  | ΔTm | 2.6 ± 1 °C
Cc1ncsc1-c1ccc(C(C)NC(=O)C2CC(O)CN2C(=O)C(NC(=O)CCCCCCCCCCN2CCCC(Nc3ncc(Cl)c(Nc4ccccc4S(=O)(=O)C(C)C)n3)C2)C(C)(C)C)cc1 (stereo not shown) | 22Rv1 | RNA-seq, measured: MED13 mRNA |  | concentration not given | reference: DMSO | log2 fold change | -1.06
C=CC(=O)Nc1cccc(Cn2ncc3cnc(Nc4cnn(CCOC)c4)nc32)c1 | MAP3K1 human | binding, KINOMEscan |  | 100 nM | lower = stronger binding | percent of control | 100%
O=C(N/N=C/c1ccc(C[n+]2ccccc2)cc1)c1ccc2ccc(C(=O)N/N=C/c3ccc(C[n+]4ccccc4)cc3)nc2n1 | telomeric G4 DNA hybrid-2 | FRET melting |  | 1 µM, DNA 0.2 µM, together with: duplex DNA competitor 10 µM |  | ΔTm | 15.7 ± 0.2 °C
C=CC(=O)N1[C@@H](c2ccc3c(c2)OCO3)c2[nH]c3ccccc3c2C[C@H]1C(=O)N1CCN(C)CC1 | CCNE1 WT-3xFLAG:CDK2 complex | co-IP TMT proteomics, measured: PRC1 | HEK-293T | 20 µM, 6 h | reference: DMSO | log2 fold change | -0.14
N=C(N)NCCC[C@@H]1NC(=O)[C@H](CCCNC(=N)N)NC(=O)[C@@H](CCCNC(=N)N)NC(=O)[C@@H](CCCNC(=N)N)NC(=O)[C@@H](C(c2ccccc2)c2ccccc2)NC(=O)[C@H](Cc2c[nH]c3ccccc23)NC(=O)[C@@H](C(c2ccccc2)c2ccccc2)NC1=O | Aspergillus fumigatus | fungal growth |  |  |  | MIC | > 64 µg/mL
CNS(=O)(=O)Nc1nccc(Cc2c(C)c3ccc(Oc4ncccc4F)cc3oc2=O)c1F | COV504 | cell viability |  | 7 days |  | IC50 | > 1 µM
Nc1ncc(-c2cc(-c3cnn(CC(F)(F)F)c3)ncc2F)nc1C(=O)NC1CNCC(F)C1 (stereo not shown) | ERBB4 | KINOMEscan |  | 1 µM | reference: DMSO control | remaining binding | 100%
CC[n+]1cccc2cc(/C=N/NC(=O)c3cncc(C(=O)N/N=C/c4ccc5c(ccc[n+]5CC)c4)n3)ccc21 | telomeric G4 DNA hybrid-2 | FRET melting |  | 1 µM, DNA 0.2 µM |  | ΔTm | 20.3 ± 0.7 °C
C=C(NC(=O)c1csc(-c2nc3c(cc2O)-c2nc(cs2)C(=O)NC(C(C)O)C(=O)NC(=C(C)OC)c2nc(cs2)C(=O)NC2c4nc(cs4)C(=O)NC(COC(=O)c4c5c6c(cccc6n4O)COC(=O)C(OC4CC(C)(O)C(N(C)C)C(C)O4)C2OC5)c2nc-3cs2)n1)C(N)=O (stereo not shown) | Staphylococcus epidermidis | broth microdilution | methicillin-resistant isolates |  |  | MIC90 | 0.0312 µg/mL (≈ 0.0217 µM)
O=C(N/N=C/c1ccc(C[n+]2ccccc2)cc1)c1cccc(C(=O)N/N=C/c2ccc(C[n+]3ccccc3)cc2)n1 | telomeric G4 DNA hybrid-2 | FRET melting |  | 1 µM, DNA 0.2 µM |  | ΔTm | 11.9 ± 3 °C
CN1CCCNC(=O)c2cccc(c2)C(=O)NCCCN(C)CCCNc2cccc3c2C(=O)c2cccc(c2C3=O)NCCC1 | SAS | RNA-Seq, measured: WDR7 mRNA |  | 1 µM, 6 h | reference: untreated cells | log2 fold change | -1.23
CC[n+]1cccc2cc(/C=N/NC(=O)c3ccc4ccc5ccc(C(=O)N/N=C/c6ccc7c(ccc[n+]7CC)c6)nc5c4n3)ccc21 | telomeric G4 DNA hybrid-2 | FRET melting |  | 1 µM, DNA 0.2 µM, together with: duplex DNA competitor 10 µM |  | ΔTm | 34.6 ± 1 °C
CC(C)(C)c1cc(-c2ccc3cccnc3n2)nc(-c2ccc3cccnc3n2)c1.[Cl-].[Cl-].[Ru+2].c1ccc2cc3nc4c5cccnc5c5ncccc5c4nc3cc2c1 | B16-F10 | resazurin |  | together with: light 633 nm, 20 mW, 100 J/cm2 |  | EC50 | 4.85 µM

For quick reference, copied from above:
SMILES | tested on | assay | system | conditions | scale | quantity | value
COC1CN([C@H]2CC[C@H]([C@@]3(C)Oc4c(Cl)cc(C(=O)NCc5c(SC)cc(C)[nH]c5=O)c(C)c4O3)CC2)C1 |  | RNA-seq, measured: MICU1 mouse homolog | mouse, HT-1376 xenograft, whole blood | dose not given | reference: vehicle | log2 fold change | 0.554
C[n+]1cc(/C=N/NC(=O)C(=O)N/N=C/c2cc3ccccc3[n+](C)c2)cc2ccccc21 | telomeric G4 DNA hybrid-2 | FRET melting |  | 1 µM, DNA 0.2 µM |  | ΔTm | 2.6 ± 1 °C
